Assay results gathered from unrelated publications.
Numbered parts are unrelated; each lists some results of a single study. Substitutions count along the parent as printed.

Sample 1
Target: PABPC1L2, full length, GST fusion (mouse, UniProt A0ABA7IW68)
Technique: RNAcompete
Molecule type: RNA
Medium: in vitro
Concentration: 20 nM
Notes: 7-mer, probes averaged, single round
Baseline: mean of 7-mers
Reading: higher = stronger binding
Construct (chain): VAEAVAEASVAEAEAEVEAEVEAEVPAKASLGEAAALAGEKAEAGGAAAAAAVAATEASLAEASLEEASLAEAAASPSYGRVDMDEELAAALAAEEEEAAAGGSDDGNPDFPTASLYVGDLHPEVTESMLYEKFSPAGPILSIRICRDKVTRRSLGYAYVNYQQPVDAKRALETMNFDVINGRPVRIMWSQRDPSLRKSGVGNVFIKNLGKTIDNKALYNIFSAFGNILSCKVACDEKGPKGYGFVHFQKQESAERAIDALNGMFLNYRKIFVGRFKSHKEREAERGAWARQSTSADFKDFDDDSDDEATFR
Oligonucleotide	7-mer Z-score
CGUGUUA	-0.434
UACAACC	-0.182
AGCUAAC	-0.324
UUCACGG	-0.173
GGAAUUA	-0.0047
GCCUGUG	-0.211
UGGGGGC	0.646
CAGACUA	-0.115
GACACAU	-0.0518
AACGUCC	0.00436
AGGUAGU	-0.217
UGGGCGG	0.175
CCGGCGA	-0.0826
CGUCACA	-0.139
GAAAUCG	0.28
UAAAGUU	0.535
AUCGAAU	0.0732
GAUAUAA	0.133

Sample 2
Target: Sal-like protein 4, full length isoform A (SALL4, Homo sapiens, UniProt Q9UJQ4, residues 1-1053)
UniProt Q9UJQ4, sequence (whole entry, looked up): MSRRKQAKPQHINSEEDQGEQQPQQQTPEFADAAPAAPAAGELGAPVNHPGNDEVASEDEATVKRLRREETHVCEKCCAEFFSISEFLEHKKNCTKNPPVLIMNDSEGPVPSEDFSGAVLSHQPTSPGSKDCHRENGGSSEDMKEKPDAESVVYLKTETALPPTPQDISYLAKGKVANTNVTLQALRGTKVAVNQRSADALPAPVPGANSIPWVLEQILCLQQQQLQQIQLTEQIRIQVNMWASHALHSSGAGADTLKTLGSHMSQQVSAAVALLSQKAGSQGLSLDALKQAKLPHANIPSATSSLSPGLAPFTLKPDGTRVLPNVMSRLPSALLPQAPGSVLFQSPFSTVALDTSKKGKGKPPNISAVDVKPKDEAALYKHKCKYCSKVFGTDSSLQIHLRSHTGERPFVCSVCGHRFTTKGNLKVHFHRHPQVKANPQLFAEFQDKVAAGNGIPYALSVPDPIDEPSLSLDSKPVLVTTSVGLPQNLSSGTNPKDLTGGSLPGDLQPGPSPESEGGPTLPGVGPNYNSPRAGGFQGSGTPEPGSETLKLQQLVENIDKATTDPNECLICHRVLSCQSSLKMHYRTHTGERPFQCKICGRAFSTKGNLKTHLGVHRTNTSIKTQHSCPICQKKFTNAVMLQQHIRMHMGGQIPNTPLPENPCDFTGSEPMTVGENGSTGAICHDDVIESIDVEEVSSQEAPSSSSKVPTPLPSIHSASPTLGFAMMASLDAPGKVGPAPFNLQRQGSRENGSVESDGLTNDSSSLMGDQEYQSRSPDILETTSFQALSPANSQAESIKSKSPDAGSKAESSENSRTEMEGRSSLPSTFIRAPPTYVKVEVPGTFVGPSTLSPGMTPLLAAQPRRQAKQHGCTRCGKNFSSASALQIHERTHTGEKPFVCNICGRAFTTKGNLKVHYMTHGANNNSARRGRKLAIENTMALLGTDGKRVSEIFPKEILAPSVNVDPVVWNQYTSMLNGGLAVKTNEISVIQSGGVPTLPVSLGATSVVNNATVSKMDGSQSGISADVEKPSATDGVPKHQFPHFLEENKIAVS
Technique: universal PBM
Molecule type: double-stranded DNA, one strand shown
Medium: in vitro
Concentration: 600 nM
Notes: 8-mer, flanks averaged, mean of replicates
Reading: higher = stronger binding
Oligonucleotide	E-score
AGGTAGTG	-0.0644
AGTTTTGG	0.0759
GCGCGACC	-0.255
CTGACTCA	-0.0561
GACTTAGA	0.0204
ATTCTATC	0.224
TGATAACA	0.299
GGATTCAC	-0.0149
CGTTTGGA	-0.0578
ACGGTGCC	-0.346
ATGATTTC	0.323
ATCCACGA	0.0575
GCACGTAC	-0.213
ATTCACAA	0.24
CTGACGTA	-0.111
AGACTCTG	-0.0558
ATGGACTC	-0.0465
ATTTATAA	0.382
CACGGAAG	-0.256
AAAAATTC	0.345

Sample 3
Target: RING finger protein unkempt homolog, zinc fingers 1-6, GST-SBP tag (UNK, Homo sapiens, UniProt Q9C0B0, residues 30-357)
Technique: RNA Bind-n-Seq
Molecule type: RNA
Medium: in vitro
Concentration: not given
Notes: RNA with constant flanks, human-mouse chimeric sites, ends assumed
Baseline: input RNA pool
Reading: higher = stronger binding
All sequences stand within: GGGAGUUCUACAGUCCGACGAUC … CAACAGAGGAUUGAGCAUCA
Target sequence (chain): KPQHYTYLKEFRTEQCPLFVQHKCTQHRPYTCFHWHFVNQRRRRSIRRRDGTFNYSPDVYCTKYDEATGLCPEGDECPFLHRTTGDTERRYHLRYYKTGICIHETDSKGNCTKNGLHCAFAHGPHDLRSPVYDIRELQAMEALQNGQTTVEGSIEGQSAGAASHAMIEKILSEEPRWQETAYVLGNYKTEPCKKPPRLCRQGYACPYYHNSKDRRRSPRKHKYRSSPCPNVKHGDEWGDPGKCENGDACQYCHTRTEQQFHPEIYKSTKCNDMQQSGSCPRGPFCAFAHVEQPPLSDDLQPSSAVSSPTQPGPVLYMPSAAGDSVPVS
Oligonucleotide	bound/input enrichment
AAAGUGAUGACUAUGUUUGUCCAACGACAGGUAUUUUCGGAGAGCAAAGAUGAGAUUGCGUUAGUCCUGUUUGGUACAGAUGGCACUGACAAUCCCCUUGCUGGCAAGGACCAGUAUCAG	0.191 ratio
UGACAAGGGCACUGCAGAGCCAUGCCUUUCCUUGACAUACAGAAAAAGUUCGGCCUUAGCCUGGACCGGCACUUUAUGUUCCUAAGCGCAGAACAGCCCUAUAAGAAGGCUGGUCGAUGC	0.0884 ratio
UUACCCGAGAACGAGGAUGAGCUGGAGAGCACCAACAGACGCUAUACCAAGAGGGACUGCAGCACUUUCCUCAGAACUAGUGAGACGGGCAUUGUGGACCAGGUCAUGGUCACUCUCAAC	0.254 ratio
AAAGAGAAACUAAAGCAACUAAUAGAGAAGAGGAUUGGCAAAGAGAAUUUCAUAGAGAAACUAGGAUUUAUUAGCAAACAUGAGUUAUAUUCCAGAGGCAUCUCAGAACCCCAGCCAAAC	12.5 ratio
GUUCGACUUUGGGAUCAUGCCACAAUGACAGAAGUGAAAUCUCUGAAUUUUAAUAUGUCUGUUAGCAGCAUGGAGUAUAUUCCUGAAGGAGAGAUUUUGGUUAUUACUUAUGGACGAUCU	0.188 ratio
GUACUGCAGCAGCAGGGAAAACUGCAGGAAGCACUGAUGCAUUAUAAGGAGGCUAUUCGAAUUAGUCCUACCUUUGCUGAUGCCUACUCUAAUAUGGGAAACACUCUAAAGGAGAUGCAG	0.317 ratio
GCAAGAGAUGAUGAGGCGGCAGCUGUUGCCCUUUCCUCUCUCGUUCAUGCUUUGGAUGAGUUAAACAUGGUCGCCAUCGUCCGAUAUGCUUAUGACAAAAGAUCUAAUCCUCAAGUUGGU	0.178 ratio
AGGAGGAGGUUAAAGGGUGAGAGUGGGGUGGAAGACUGUGUCAUGGCUCUGGAGACACUGUUCAGUGUCCUGCUUUCUCUGUGCAGACUUAUGGCUCCCUACACACCCUUUCUGACUGAG	0.0511 ratio
ACAGUUAUAUUGUUGAGUUUCAUUUUCAUAUAUUCUUAUGGUGUCUGCUUGCCUGUGUCUUUUAGUAAAAUAAAAUAAGCCUUUGAAAAUAUUUUAGCAUGGUAUUUAACAUUUUCUAAA	2.68 ratio
ACCUCCCAGGCCUGGGACACCCCACCCCCGCUUUUUGGAAAGUUUUUGGCGUUUCUUUUCCUUCCCCAUACAAAGUGGUUUUUACCACCCCCGCAAGGGUCUAUCGAAGGGCUUGACGGA	0.404 ratio
UUCAAAGAAAAGGGCAGCUGUGUCAUUACUUGGGAGACUCUGGGGGAGGGAAAUUCUGUUCUUUUGUUUAAUUUUCCCCCAAAUGAAACCAACAUGCGUGUUGAAGAACUGAGAAAAAAU	0.247 ratio

Sample 4
Target: CCNB1, cyclin fold, Cln2 fusion (human)
Technique: yeast growth competition, sequencing
Medium: yeast
Notes: strong parent motif
Baseline: not given
Reading: higher = stronger binding
Parent: PKMYT1 docking peptide (human); SFEPRNLLSLFED; partner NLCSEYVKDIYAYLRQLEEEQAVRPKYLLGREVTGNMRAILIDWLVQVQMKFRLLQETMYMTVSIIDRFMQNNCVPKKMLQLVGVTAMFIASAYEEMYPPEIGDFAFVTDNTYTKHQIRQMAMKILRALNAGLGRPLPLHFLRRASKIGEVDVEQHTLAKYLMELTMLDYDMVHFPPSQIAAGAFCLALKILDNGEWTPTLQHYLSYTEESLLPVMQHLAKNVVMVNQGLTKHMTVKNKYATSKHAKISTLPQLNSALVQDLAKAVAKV
Variant	normalised enrichment score
SFEPRNLLSLFER [D13R]	0.49
SFEFRNLLSLFED [P4F]	-0.0473
SFEPCNLLSLFED [R5C]	1.29
SFEPRPLLSLFED [N6P]	0.0226
SFEPRNLLCLFED [S9C]	0.919
SFEPRNALSLFED [L7A]	0.0612
SFCPRNLLSLFED [E3C]	1.09
SFEPRNLLSGFED [L10G]	0.21
SFEGRNLLSLFED [P4G]	-0.27
SFEPRNLLPLFED [S9P]	2.73
SVEPRNLLSLFED [F2V]	0.208
SFEPRNLLSLFET [D13T]	0.945
SFEPRNLLLLFED [S9L]	0.78
SFEPRNLLSLFKD [E12K]	-0.222
SFEPRNQLSLFED [L7Q]	-0.352
NFEPRNLLSLFED [S1N]	1.36
SFEPVNLLSLFED [R5V]	0.62
SFEPRNLLTLFED [S9T]	1.07
SFEPRRLLSLFED [N6R]	0.619
SFEPANLLSLFED [R5A]	1.23
SFELRNLLSLFED [P4L]	0.138
SFKPRNLLSLFED [E3K]	2.02
SFEPRNLLSLTED [F11T]	0.0516
SFEPRNLLSLFEM [D13M]	0.642
SFEPRNLLSSFED [L10S]	0.142

Sample 5
Target: RNA binding protein fox-1 homolog 2, RRM domain, GST-SBP tag (RBFOX2, Homo sapiens, UniProt O43251-10, residues 100-194)
Technique: RNA Bind-n-Seq
Molecule type: RNA
Medium: in vitro
Concentration: 365 nM
Notes: natural RNA segment, single round, ends assumed
Baseline: no-protein control
Reading: higher = stronger binding
All sequences stand within: GGGAGUUCUACAGUCCGACGAUC … UGGAAUUCUCGGGUGCCAA
Construct (chain): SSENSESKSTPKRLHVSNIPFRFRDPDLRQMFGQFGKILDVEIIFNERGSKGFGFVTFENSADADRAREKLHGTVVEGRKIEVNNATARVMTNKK
Oligonucleotide	RBNS enrichment (R)
GCGAGCUUUUGAAAGCAACAGGGCCUAGCCUGCAAACAGUUAUCUUGGGAAACUGUCCAGCCACGUUUCCAUUACUCGGAGCUCUCGGUUACCUUCAGACAUGGUGCCGU	1.16
CUGCCGAGAAACUUUCAGUAGAUGAAGUCUCACAGUUGGUGAUUUCUCCGCUCUGUGGUGCAAUAUCCCUAUUUGUAGGGACUACAAGAAAUAACUUUGAAGGGAAAAAA	0.503
AAGAACAUAUUUAUAAUAAAAUCACUGUAGAAGGAUUUUUAAGAUGUUAGUGAAUUCUGUUUCUUUUCAUUCUCGGAAAUGGCAGGAAGCAGCUCCAGUCUCUGAUUUCC	0.458
UGUUGUCACCCCAUGUGUUGUGUGUGACCUGUCCUCGUGUGCCCUUGGUGUCUGACUUCAGAGAGUCCUACAUGAACUCAGUAAUCCACAUCUCUCACACAGCUGAGAGU	0.261
CUCUGGGAAGCUCUUCCUCCUGCCCCUCCCAUUCCUGGUGGGGGCAGAGGAGUGUCUGCAGGGAAACAGCUUCUCCUCUGCCCCGAUGGAUGCUUUAUUUGGAUGGCCUG	0.566
GAACAUCACAACACUGCUCUAGUUUCUUGGAGAAUCACAUUUCUUUACAGGUUAAAGACAAACAAGACCCCAGGGUUUUUAUCUAGAAAGUUAUUCAAGUGAAAGAAAGA	0.467
AAGGUACUGGAAAACCUUCCACAUGCCCAACCUGAGACCUGUUCCCCAUCGCUACCAUUUGGCCAAACAACCGGCUACAAUGCUCUUCCUCUUCUGGAAUGUUGCUGACC	0.242
UCCUCCCAGGAGGGAGGAGGGUGCGGCCCUCUCCCUGCAGGGGGAUCUGGGGACCCUCUCCCCGGCUGCCUCAGGCUUCUCCCACGAAGAGGAAACGCAAAAAAAGAAAA	0.308
AAGACUGAUACAAGUAACCUCCCCUCUGCUUAGGUGUCACUUUCUCAGCAUAUCAAGUUUAGGCAGCAAGGGAAAGGAAUAUGGGUCAGUUCUCAAAUGUCAAUGUAGAU	0.457
AUCAUAGGAUUUAUCAGUUAUCAGACACCUCAUUGUACCAGAGAUUGUCCAGAAGUUUUAAAGACCUUUGCAUCCCUGAACUGGGCUAUGGGAAAUAAUAAUAGUAAUAA	0.37
CACGGUCCUCGCUAGGGGCCCCAUGUCACCUGCAUCAGGACUAUUGGCACUCACUAGCUGCCCCUACAGCUUGCCUCUGGGCCUCAGAGAGGGGUGUUUCUGCCCGGGUU	5.59
AGGAACCCAGCCUCCUGUGUUUUGACCCUCCUGCAGGCACUGUGGGACUCGAGGGCAGCAGAUCCAUCUCCCGUCCCUUGCUGCAUGAUGGUCACUAGCUGAUCUGUGAU	0.627
